# Measurements collected from several papers.
# Parts stem from different laboratories: compare values within a part only. Changes are numbered by the printed parent chain.
# UniProt P08922, sequence (whole entry, looked up): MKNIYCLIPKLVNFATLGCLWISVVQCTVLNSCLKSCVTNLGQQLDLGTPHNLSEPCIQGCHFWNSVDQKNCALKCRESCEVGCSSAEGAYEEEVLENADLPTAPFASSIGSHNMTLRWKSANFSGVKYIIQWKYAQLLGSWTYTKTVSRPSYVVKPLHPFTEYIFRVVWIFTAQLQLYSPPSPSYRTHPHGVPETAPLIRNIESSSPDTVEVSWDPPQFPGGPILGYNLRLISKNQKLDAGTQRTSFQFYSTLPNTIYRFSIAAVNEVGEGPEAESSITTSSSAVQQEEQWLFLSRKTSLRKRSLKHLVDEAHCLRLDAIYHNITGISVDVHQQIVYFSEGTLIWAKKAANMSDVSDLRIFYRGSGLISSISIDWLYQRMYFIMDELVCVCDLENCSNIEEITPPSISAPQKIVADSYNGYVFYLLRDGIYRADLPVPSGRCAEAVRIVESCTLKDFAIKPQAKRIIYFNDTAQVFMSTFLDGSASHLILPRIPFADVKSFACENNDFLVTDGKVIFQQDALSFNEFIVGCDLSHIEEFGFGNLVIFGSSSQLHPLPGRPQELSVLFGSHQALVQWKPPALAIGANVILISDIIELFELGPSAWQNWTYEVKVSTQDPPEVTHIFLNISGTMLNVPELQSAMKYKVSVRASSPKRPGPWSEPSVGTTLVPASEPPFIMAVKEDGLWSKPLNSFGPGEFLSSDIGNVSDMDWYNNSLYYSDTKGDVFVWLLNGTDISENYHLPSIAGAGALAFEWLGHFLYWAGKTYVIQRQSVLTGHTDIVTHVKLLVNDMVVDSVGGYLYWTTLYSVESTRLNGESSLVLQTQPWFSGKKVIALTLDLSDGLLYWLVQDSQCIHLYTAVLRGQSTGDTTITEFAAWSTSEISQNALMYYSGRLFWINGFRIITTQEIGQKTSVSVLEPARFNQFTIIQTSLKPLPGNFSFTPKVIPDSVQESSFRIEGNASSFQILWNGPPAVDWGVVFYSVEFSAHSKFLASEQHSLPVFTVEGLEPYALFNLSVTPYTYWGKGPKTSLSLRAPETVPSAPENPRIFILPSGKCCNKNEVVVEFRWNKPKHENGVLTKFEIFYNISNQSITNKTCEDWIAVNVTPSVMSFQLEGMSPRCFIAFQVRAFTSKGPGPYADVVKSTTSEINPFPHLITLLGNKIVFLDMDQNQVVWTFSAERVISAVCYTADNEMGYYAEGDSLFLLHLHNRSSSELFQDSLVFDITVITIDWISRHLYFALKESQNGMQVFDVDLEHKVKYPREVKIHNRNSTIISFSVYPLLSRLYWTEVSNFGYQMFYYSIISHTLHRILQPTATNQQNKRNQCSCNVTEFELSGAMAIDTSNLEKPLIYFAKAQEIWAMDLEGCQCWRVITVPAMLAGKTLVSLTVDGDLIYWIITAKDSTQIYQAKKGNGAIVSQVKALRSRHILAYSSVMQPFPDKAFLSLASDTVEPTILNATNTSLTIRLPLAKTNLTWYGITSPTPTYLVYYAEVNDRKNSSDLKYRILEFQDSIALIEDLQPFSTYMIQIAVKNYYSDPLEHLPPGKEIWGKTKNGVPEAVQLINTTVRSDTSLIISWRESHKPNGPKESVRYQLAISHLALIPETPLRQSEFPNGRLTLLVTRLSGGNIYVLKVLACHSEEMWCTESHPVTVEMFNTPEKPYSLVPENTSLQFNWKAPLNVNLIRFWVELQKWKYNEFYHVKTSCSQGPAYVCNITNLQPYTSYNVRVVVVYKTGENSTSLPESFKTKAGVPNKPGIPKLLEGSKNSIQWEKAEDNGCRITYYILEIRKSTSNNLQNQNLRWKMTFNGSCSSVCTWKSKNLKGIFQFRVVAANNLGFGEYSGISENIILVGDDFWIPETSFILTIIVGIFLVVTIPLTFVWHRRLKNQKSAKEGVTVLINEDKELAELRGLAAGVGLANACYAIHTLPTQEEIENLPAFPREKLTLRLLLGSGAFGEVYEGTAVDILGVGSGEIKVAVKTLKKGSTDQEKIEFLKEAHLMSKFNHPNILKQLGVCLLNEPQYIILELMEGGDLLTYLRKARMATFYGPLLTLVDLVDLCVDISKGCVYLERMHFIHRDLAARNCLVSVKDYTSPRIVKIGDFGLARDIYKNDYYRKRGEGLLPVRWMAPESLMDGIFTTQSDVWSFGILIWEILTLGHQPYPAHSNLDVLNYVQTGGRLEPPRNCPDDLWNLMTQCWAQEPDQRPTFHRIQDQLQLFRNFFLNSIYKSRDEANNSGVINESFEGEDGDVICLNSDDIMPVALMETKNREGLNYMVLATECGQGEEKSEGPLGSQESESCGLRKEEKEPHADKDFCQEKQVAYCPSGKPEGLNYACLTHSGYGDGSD

# Set 1 — observed: peptide-MHC binding; form: peptide; concentration: concentration not given
# Target: HLA class I histocompatibility antigen, A alpha chain, allele A*26:03 (Homo sapiens, UniProt P04439)
Molecule,binding
GTEEIKSLY,inactive
RSLFNTIATLY,inactive
DTWHGFKNM,active
DWSGYSGSF,inactive
ALFDRPAFK,inactive
ILQDRIRMY,inactive
REVFDYLLP,inactive
LVGGREWSY,inactive

# Set 2 — target: CCND3, cyclin fold, Cln2 fusion (human); method: yeast growth competition, sequencing; medium: yeast; notes: weak parent motif; reference: not given; reading: higher = stronger binding
# Starting sequence: viral docking peptide; KGVKRKLFAEDSS; partner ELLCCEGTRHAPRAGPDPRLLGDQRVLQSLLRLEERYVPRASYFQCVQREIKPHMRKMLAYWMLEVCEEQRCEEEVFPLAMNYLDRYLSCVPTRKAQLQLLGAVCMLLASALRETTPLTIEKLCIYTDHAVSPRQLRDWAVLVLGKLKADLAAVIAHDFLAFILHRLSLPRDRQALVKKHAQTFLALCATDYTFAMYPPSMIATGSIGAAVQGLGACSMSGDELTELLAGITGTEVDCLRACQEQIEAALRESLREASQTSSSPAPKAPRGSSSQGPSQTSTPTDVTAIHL
Change,normalised enrichment score
KGVMRKLFAEDSS [K4M],-0.262
KGVKRKLFADDSS [E10D],0.383
KGVKRCLFAEDSS [K6C],-0.0194
KGVKRKLFAEDKS [S12K],0.169
KAVKRKLFAEDSS [G2A],0.118
KGVKRKLFAYDSS [E10Y],-0.102
KGVKRKLFAERSS [D11R],0.277
KKVKRKLFAEDSS [G2K],0.459

# Set 3 — target: UBE2D4 UBC core domain (UniProt Q9Y2X8); method: yeast two-hybrid; medium: yeast; notes: mostly zero background; reference: not given; reading: higher = stronger interaction
# B1: PJA2 RING domain (UniProt O43164); chain DHTAIGQEQCCPICCSEYIKDDIATELPCHHFFHKPCVSIWLQKSGTCPVCRRHFPPAVIEA
# B2: RNF130 RING domain (UniProt Q86XS8); chain DKETDPDFDHCAVCIESYKQNDVVRILPCKHVFHKSCVDPWLSEHCTCPMCKLNILKALGIV
# B3: UBE4B RING domain (UniProt O95155); chain KNARAEIDYSDAPDEFRDPLMDTLMTDPVRLPSGTIMDRSIILRHLLNSPTDPFNRQTLTESMLEPVPELKEQIQAWMREKQNSDH
# B4: NHLRC1 RING domain (UniProt Q6VVB1); chain MREAEISLLECKVCFEKFGHRQQRRPRNLSCGHVVCLACVAALAHPRTLALECPFCRRACRGCDTSD
# B5: TRIM2 RING domain (UniProt Q9C040); chain VRQIDKQFLICSICLERYKNPKVLPCLHTFCERCLQNYIPAHSLTLSCPVCRQTSILPEKGV
# Residues (chain): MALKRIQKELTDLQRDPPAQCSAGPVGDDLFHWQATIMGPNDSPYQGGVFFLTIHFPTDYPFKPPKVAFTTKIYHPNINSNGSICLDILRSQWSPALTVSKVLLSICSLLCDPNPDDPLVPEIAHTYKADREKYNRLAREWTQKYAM
Molecule,lacZ reporter activity
B1 (PJA2 RING domain),2420
KITELNPHLMCALCGGYFIDATTIVECLHSFCKTCIVRYLETNKYCPMCDVQVHKTRPLL (PCGF2 RING domain (UniProt P35227)),0
B2 (RNF130 RING domain),14800
EIKDYKARLTCPCCNMRKKDAVLTKCFHVFCFECVKTRYDTRQRKCPKCNAAFGANDFHR (RNF20 RING domain (UniProt Q5VTR2)),0
B3 (UBE4B RING domain),0
B4 (NHLRC1 RING domain),0
B5 (TRIM2 RING domain),0
FLSKVEETFQCICCQELVFRPITTVCQHNVCKDCLDRSFRAQVFSCPACRYDLGRSYAMQ (UHRF1 RING domain (UniProt Q96T88)),0

# Single results of other studies
Compound,target,test,setting,scale,quantity,result
CC(C)(C)c1cc(C=C(C#N)C#N)cc(Br)c1O,"Proto-oncogene tyrosine-protein kinase ROS (ROS1, Homo sapiens, UniProt P08922)","enzyme activity, inhibitor",0.5 µM,reference: control,remaining activity,93.2%

# A few entries again (set 1):
Molecule,binding
RSLFNTIATLY,inactive
DTWHGFKNM,active
DWSGYSGSF,inactive
